{"data": "Measurements from different studies", "CRBN/Zinc finger protein Aiolos": "CRBN/Zinc finger protein Aiolos (Homo sapiens, UniProt Q96SW2+Q9UKT9)", "PNLIP": "Pancreatic triacylglycerol lipase (PNLIP, Homo sapiens, UniProt P16233)", "MAPK9": "Mitogen-activated protein kinase 9 (MAPK9, Homo sapiens, UniProt P45984)", "CTSS": "Cathepsin S (CTSS, Homo sapiens, UniProt P25774)", "note": "Lines come from different studies, so protocols differ.", "UniProt P16233, sequence (whole entry, looked up)": "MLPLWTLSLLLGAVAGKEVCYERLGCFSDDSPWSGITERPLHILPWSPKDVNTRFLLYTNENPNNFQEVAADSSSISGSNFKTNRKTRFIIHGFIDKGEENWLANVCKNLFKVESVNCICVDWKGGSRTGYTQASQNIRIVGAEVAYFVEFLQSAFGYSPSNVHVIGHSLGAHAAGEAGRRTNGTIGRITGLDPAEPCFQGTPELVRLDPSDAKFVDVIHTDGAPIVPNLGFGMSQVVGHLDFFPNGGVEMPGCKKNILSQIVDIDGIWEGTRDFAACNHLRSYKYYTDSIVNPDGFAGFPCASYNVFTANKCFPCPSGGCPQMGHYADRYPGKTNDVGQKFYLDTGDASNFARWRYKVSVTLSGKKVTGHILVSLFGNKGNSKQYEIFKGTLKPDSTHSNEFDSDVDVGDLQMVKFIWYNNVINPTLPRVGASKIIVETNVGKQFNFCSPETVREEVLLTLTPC", "UniProt P42336, sequence (whole entry, unmodified, looked up)": "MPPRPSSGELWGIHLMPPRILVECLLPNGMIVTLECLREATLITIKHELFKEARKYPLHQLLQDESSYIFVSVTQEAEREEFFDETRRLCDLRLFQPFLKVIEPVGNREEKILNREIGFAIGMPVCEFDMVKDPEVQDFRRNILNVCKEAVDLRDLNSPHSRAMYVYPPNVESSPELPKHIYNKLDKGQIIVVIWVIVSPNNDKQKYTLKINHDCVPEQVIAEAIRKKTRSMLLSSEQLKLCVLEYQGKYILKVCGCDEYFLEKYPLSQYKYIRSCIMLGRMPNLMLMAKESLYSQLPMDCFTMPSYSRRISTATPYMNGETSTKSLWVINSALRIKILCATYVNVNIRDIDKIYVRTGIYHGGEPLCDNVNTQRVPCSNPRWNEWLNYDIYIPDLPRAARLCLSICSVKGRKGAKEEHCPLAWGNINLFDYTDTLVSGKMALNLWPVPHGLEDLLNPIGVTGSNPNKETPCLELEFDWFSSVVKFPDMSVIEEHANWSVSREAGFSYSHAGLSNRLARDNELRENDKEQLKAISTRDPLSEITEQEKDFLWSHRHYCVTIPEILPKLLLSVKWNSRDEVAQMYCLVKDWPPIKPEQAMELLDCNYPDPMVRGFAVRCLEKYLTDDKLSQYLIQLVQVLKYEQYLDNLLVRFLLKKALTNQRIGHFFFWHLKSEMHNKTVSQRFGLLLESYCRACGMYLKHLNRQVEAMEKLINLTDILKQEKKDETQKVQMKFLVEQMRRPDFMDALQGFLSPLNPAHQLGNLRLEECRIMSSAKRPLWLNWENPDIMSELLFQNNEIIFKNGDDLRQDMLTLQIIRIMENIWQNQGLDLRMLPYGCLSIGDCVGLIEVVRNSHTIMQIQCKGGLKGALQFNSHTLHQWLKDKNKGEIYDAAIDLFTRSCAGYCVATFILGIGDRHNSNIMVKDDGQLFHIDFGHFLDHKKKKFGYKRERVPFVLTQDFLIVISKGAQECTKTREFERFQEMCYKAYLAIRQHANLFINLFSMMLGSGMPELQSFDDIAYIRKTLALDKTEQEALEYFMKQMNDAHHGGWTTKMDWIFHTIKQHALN", "UniProt P25774, sequence (whole entry, looked up)": "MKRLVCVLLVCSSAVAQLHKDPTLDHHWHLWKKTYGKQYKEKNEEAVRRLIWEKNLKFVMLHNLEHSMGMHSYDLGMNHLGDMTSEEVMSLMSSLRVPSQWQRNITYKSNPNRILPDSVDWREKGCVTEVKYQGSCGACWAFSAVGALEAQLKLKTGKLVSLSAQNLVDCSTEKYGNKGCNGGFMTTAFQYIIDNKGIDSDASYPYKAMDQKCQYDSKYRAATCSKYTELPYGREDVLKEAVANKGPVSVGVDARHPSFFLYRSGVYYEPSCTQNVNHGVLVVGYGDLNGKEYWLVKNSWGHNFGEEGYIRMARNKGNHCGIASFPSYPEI", "UniProt P45984, sequence (whole entry, looked up)": "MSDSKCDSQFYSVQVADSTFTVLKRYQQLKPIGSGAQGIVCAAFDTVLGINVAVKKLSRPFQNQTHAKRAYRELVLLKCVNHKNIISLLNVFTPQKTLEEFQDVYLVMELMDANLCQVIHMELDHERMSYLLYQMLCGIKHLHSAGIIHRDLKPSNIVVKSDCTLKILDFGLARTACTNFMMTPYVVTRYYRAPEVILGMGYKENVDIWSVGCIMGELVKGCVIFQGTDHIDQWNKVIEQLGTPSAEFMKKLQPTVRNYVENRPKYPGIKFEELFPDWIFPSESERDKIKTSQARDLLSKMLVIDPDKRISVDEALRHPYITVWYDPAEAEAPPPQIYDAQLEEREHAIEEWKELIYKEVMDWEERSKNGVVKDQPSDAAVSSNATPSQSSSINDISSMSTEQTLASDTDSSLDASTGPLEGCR", "UniProt Q16539, sequence (whole entry, looked up)": "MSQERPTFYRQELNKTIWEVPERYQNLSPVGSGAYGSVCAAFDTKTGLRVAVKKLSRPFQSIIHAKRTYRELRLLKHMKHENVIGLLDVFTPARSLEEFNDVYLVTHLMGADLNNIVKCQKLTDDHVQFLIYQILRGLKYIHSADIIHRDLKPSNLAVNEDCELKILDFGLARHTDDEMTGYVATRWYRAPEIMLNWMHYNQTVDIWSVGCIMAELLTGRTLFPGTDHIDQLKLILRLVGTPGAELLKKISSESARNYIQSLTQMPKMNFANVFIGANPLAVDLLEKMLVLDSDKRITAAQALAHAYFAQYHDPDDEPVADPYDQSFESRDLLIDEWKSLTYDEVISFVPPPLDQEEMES", "UniProt P03070, sequence (whole entry, looked up)": "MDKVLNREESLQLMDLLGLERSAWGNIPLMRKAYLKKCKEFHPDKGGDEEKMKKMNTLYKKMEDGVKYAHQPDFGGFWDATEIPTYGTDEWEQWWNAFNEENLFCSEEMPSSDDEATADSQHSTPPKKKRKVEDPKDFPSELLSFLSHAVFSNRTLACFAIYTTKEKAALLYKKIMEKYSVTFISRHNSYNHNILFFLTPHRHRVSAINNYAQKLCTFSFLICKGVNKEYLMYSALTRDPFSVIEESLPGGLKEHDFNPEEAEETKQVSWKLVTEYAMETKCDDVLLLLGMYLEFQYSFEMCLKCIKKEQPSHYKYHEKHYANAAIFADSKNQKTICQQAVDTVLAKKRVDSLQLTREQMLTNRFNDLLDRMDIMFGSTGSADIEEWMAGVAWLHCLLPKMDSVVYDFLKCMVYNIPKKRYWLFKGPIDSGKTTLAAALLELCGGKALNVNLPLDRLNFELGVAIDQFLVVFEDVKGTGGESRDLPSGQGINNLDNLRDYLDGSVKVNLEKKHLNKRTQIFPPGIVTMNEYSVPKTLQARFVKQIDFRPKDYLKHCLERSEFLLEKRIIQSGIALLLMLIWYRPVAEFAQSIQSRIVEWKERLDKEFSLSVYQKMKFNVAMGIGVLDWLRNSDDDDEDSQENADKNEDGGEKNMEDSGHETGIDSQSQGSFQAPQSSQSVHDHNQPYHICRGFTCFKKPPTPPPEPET", "UniProt Q9HB29, sequence (whole entry, looked up)": "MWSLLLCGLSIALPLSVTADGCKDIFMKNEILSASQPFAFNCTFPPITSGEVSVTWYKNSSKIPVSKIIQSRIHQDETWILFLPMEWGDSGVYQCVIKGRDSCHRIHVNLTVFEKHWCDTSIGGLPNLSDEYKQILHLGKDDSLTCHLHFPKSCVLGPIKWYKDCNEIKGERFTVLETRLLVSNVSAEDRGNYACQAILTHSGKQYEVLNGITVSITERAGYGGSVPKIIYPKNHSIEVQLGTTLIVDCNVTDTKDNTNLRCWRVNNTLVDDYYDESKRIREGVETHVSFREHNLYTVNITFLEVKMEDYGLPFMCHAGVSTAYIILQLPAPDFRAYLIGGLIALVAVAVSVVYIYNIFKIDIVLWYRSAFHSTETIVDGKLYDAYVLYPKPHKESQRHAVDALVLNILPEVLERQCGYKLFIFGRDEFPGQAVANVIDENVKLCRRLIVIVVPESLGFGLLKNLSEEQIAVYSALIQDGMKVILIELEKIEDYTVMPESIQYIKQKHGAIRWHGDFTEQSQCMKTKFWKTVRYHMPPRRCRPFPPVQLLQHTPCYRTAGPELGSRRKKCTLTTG", "UniProt P14778, sequence (whole entry, looked up)": "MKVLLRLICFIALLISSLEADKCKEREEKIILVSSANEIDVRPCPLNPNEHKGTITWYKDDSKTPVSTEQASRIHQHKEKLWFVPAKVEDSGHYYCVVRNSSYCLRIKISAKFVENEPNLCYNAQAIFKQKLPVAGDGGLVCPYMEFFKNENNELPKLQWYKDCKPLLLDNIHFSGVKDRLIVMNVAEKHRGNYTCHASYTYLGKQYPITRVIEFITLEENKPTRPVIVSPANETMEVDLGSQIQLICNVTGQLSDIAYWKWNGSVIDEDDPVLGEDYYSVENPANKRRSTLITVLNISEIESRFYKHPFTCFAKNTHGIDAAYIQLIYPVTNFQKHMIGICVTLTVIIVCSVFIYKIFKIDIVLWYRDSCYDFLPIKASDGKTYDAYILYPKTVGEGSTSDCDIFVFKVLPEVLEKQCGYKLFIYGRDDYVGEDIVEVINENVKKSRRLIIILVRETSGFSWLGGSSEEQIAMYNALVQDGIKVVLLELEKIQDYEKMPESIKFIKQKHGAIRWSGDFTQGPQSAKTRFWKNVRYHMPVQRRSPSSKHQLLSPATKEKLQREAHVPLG", "UniProt P20151, sequence (whole entry, looked up)": "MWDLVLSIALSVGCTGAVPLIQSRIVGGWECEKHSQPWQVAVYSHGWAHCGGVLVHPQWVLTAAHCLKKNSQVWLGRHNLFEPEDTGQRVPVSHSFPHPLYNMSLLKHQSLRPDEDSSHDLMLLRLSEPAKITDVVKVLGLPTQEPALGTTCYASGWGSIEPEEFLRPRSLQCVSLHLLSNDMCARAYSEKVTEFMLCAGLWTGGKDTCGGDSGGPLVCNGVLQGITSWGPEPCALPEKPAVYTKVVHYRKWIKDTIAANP"}
{"SMILES": "C[C@](C(=O)NC1CCOCC1)(c1cncnc1)N(C(=O)[C@H](F)Cl)c1ccc(OC(F)(F)Cl)cc1", "target": "Kallikrein-2 (Homo sapiens, UniProt P20151)", "test": "enzyme activity, inhibitor", "conditions": "10 µM", "remaining activity": "103%"}
{"SMILES": "O=C1CCC(N2C(=O)c3cccc4c(Cc5cnn(C6CCN(C(=O)CS)CC6)c5)ccc2c34)C(=O)N1 (centres unmarked)", "target": "CRBN/Zinc finger protein Aiolos", "test": "protein level, degrader, western blot", "system": "NCI-H929", "conditions": "10 nM, 4 h", "remaining activity": "93.6%"}
{"SMILES": "O=C1c2cccc(O)c2C(=O)c2cccc(O)c21", "target": "PNLIP", "test": "enzyme activity, inhibitor, fluorescence", "conditions": "50 µM", "remaining activity": "7.76%"}
{"SMILES": "N#Cc1cnc2sc(C(=O)O)cc2c1N1CCc2[nH]nc(C(=O)N[C@@H](CC(=O)NCCOCCN3CCOCC3)c3cccc(Br)c3)c2C1", "target": "IL1R1 (Homo sapiens, UniProt P14778)", "test": "IL-8 release, antagonist", "system": "A-431", "conditions": "6 µM, 18 h, with: IL-1β 5 ng/mL", "how to read": "baseline: untreated", "remaining activity": "87.4%"}
{"SMILES": "COC(=O)[C@@]1(C)C=C(C(=O)Nc2cccc(C(=O)Nc3ccc(Nc4nccc(-c5cccnc5)n4)c(C)c3)c2)C(=O)CC1", "target": "MAPK14 (Homo sapiens, UniProt Q16539)", "test": "kinase activity, inhibitor", "conditions": "0.1829 µM, unit not given", "how to read": "baseline: no inhibitor", "remaining activity": 1.09}
{"SMILES": "CO[C@@H]1[C@@H](OC(=O)c2ccc(C)[nH]2)[C@@H](O)[C@H](Oc2ccc3c(O)c(NC(=O)c4c[nH]c(C(=O)Nc5c(O)c6ccc(O[C@@H]7OC(C)(C)[C@H](OC)[C@@H](OC(=O)c8ccc(C)[nH]8)[C@H]7O)c(C)c6oc5=O)c4C)c(=O)oc3c2C)OC1(C)C", "target": "Large T antigen (Simian virus 40, UniProt P03070)", "test": "fork unwinding", "conditions": "125 µM", "remaining activity": "7%"}
{"SMILES": "C#CCOC(=O)[C@]1(C)C=C(C(=O)Nc2cccc(C(=O)Nc3ccc(C)c(Nc4nccc(-c5cccnc5)n4)c3)c2)C(=O)CC1", "target": "MAPK9", "test": "enzyme activity, inhibitor", "conditions": "8.363e-05 µM, unit not given", "how to read": "baseline: vehicle", "remaining activity": 0.949}
{"SMILES": "O=C1CCC(N2Cc3c(OCc4ccc(CN5CCNCC5)cc4)cccc3C2=O)C(=O)N1 (centres unmarked)", "target": "CRBN/Zinc finger protein Aiolos", "test": "protein level, degrader, western blot", "system": "NCI-H929", "conditions": "10 nM, 4 h", "remaining activity": "78.2%"}
{"SMILES": "CC(C)[C@@H]1NC(=O)[C@H](Cc2ccccc2)NC(=O)CSC[C@@H](C(N)=O)NC(=O)[C@H](CCC(=O)O)NC(=O)[C@H](CO)NC(=O)[C@H](Cc2c[nH]c3cccc(Cl)c23)NC(=O)[C@H](C2CCCCC2)NC(=O)[C@H](C(C)C)NC(=O)[C@H](Cc2ccc(O)cc2)NC(=O)[C@H](CC(=O)O)NC(=O)[C@H](Cc2c[nH]c3ccccc23)NC(=O)[C@H](Cc2ccc(N)nc2)NC(=O)[C@H](Cc2c[nH]c3ccc(Cl)cc23)NC(=O)[C@H](CCC(=O)O)NC1=O", "target": "Interleukin-1 receptor-like 2 (IL1RL2, Homo sapiens, UniProt Q9HB29)", "test": "SEAP reporter gene, antagonist", "system": "HEK-Blue IL-36R cells", "conditions": "33.33 µM, 6 h, with: IL-36 1 ng/mL", "how to read": "baseline: untreated", "remaining activity": "2.4%"}
{"SMILES": "COC(=O)c1cc2cc3c(cc2oc1=O)N(CC(=O)NC(Cc1cccc(Cl)c1)C(=O)NCC=CS(=O)(=O)c1ccccc1)CCC3 (centres unmarked)", "target": "CTSS", "test": "inhibitor", "conditions": "5 µM, 60 min, with: Z-Phe-Arg-AMC", "how to read": "baseline: uninhibited control", "remaining activity": "< 1%"}
{"SMILES": "O=C1CCC(N2Cc3c(OCc4cn(C5CCNCC5)nn4)cccc3C2=O)C(=O)N1 (centres unmarked)", "target": "CRBN/Zinc finger protein Aiolos", "test": "protein level, degrader, western blot", "system": "NCI-H929", "conditions": "1 nM, 4 h", "remaining activity": "95.6%"}
{"SMILES": "O=C=[N][Ru-4]123([n]4c5ccc(O)cc5c5c6c(c7cc(F)c[n+]1c7c54)C(=O)NC6=O)[S+]1CC[S+]2CC[S+]3CC1 (centres unmarked)", "target": "PDGFRA (Homo sapiens, UniProt P16234, D842V)", "test": "enzyme activity", "conditions": "100 nM, human enzyme, with: 10 µM ATP", "how to read": "baseline: untreated", "remaining activity": "63%"}
{"SMILES": "COc1ccc(NC(=O)Nc2ccc3c(c2)C(=O)N(C(C)CO)CC(C)C(CN(C)Cc2ccc4c(c2)OCO4)O3)cc1 (centres unmarked)", "target": "Abl2 (Mus musculus, UniProt Q4JIM5)", "test": "kinase activity, KinaseProfiler", "conditions": "0.03 µM, species mouse", "how to read": "baseline: control", "remaining activity": "97%"}
{"SMILES": "COc1cc(Nc2nc(C)cc(-c3cnn4nc(OC)ccc34)n2)cc(C(F)(F)F)c1", "target": "PIK3CA (Homo sapiens, UniProt P42336, I800L)", "test": "inhibitor", "conditions": "1 µM", "how to read": "baseline: control", "remaining activity": "46%"}
{"SMILES": "O=C(O)CN(CC(=O)O)Cc1cc2c(c(O)c1O)C(=O)c1c(O)cccc1C2=O", "target": "PNLIP", "test": "enzyme activity, inhibitor, fluorescence", "conditions": "50 µM", "remaining activity": "12.6%"}
{"SMILES": "Cc1cnc2nc1Nc1cccc(c1)COC/C=C/COCc1cc(ccc1OCCN1CCOCC1)N2", "target": "EGFR (Homo sapiens, UniProt P00533, del752-759)", "conditions": "concentration not given", "how to read": "baseline: untreated control", "remaining activity": "97%"}
{"SMILES": "O=c1c2ccccc2c(=O)c2c1ccc1[nH]c3c(ccc4c(=O)c5ccccc5c(=O)c43)[nH]c12", "target": "PNLIP", "test": "enzyme activity, inhibitor, fluorescence", "conditions": "50 µM", "remaining activity": "3.9%"}
{"SMILES": "O=C1CCC(N2C(=O)c3cccc4c(Cc5cnn(C6CCN(C(=O)CO)CC6)c5)ccc2c34)C(=O)N1 (centres unmarked)", "target": "CRBN/Zinc finger protein Aiolos", "test": "protein level, degrader, western blot", "system": "NCI-H929", "conditions": "100 pM, 4 h", "remaining activity": "85.3%"}
{"SMILES": "O=c1c(-c2ccc(Cl)c(CN3CCOCC3)c2)coc2cc(O)ccc12", "target": "Phosphatidylinositol 4,5-bisphosphate 3-kinase catalytic subunit alpha isoform, with p85 (PIK3CA, Homo sapiens, UniProt P42336)", "test": "enzyme activity, inhibitor", "conditions": "1 µM", "remaining activity": "101%"}
{"SMILES": "CC(C)(O)C(=O)N1CCC(n2cc(Cc3ccc4c5c(cccc35)C(=O)N4C3CCC(=O)NC3=O)cn2)CC1 (centres unmarked)", "target": "CRBN/Zinc finger protein Aiolos", "test": "protein level, degrader, western blot", "system": "NCI-H929", "conditions": "100 pM, 4 h", "remaining activity": "98.7%"}
{"SMILES": "Cc1cc(NC(=O)c2cccc(N)c2)ccc1Nc1nccc(-c2cccnc2)n1", "target": "MAPK9", "test": "enzyme activity, inhibitor", "conditions": "0.1829 µM, unit not given", "how to read": "baseline: vehicle", "remaining activity": 0.863}
{"SMILES": "O=C1CCC(N2C(=O)c3cccc4c(Cc5cnn(C6CCN(C(=O)C7(O)CC7)CC6)c5)ccc2c34)C(=O)N1 (centres unmarked)", "target": "CRBN/Zinc finger protein Aiolos", "test": "protein level, degrader, western blot", "system": "NCI-H929", "conditions": "100 pM, 4 h", "remaining activity": "86.3%"}
{"SMILES": "Cc1ccc(C[C@H](NC(=O)CN2CCCc3cc4cc(C(=O)NCCNC(=O)CCCC[C@@H]5SC[C@@H]6NC(=O)N[C@@H]65)c(=O)oc4cc32)C(=O)NC/C=C/S(=O)(=O)c2ccccc2)cc1", "target": "CTSS", "test": "inhibitor", "conditions": "5 µM, 60 min, with: Z-Phe-Arg-AMC", "how to read": "baseline: uninhibited control", "remaining activity": "8%"}
{"note": "Excerpt of the above:"}
{"SMILES": "O=C(O)CN(CC(=O)O)Cc1cc2c(c(O)c1O)C(=O)c1c(O)cccc1C2=O", "target": "PNLIP", "test": "enzyme activity, inhibitor, fluorescence", "conditions": "50 µM", "remaining activity": "12.6%"}
{"SMILES": "COC(=O)[C@@]1(C)C=C(C(=O)Nc2cccc(C(=O)Nc3ccc(Nc4nccc(-c5cccnc5)n4)c(C)c3)c2)C(=O)CC1", "target": "MAPK14 (Homo sapiens, UniProt Q16539)", "test": "kinase activity, inhibitor", "conditions": "0.1829 µM, unit not given", "how to read": "baseline: no inhibitor", "remaining activity": 1.09}
{"SMILES": "CC(C)[C@@H]1NC(=O)[C@H](Cc2ccccc2)NC(=O)CSC[C@@H](C(N)=O)NC(=O)[C@H](CCC(=O)O)NC(=O)[C@H](CO)NC(=O)[C@H](Cc2c[nH]c3cccc(Cl)c23)NC(=O)[C@H](C2CCCCC2)NC(=O)[C@H](C(C)C)NC(=O)[C@H](Cc2ccc(O)cc2)NC(=O)[C@H](CC(=O)O)NC(=O)[C@H](Cc2c[nH]c3ccccc23)NC(=O)[C@H](Cc2ccc(N)nc2)NC(=O)[C@H](Cc2c[nH]c3ccc(Cl)cc23)NC(=O)[C@H](CCC(=O)O)NC1=O", "target": "Interleukin-1 receptor-like 2 (IL1RL2, Homo sapiens, UniProt Q9HB29)", "test": "SEAP reporter gene, antagonist", "system": "HEK-Blue IL-36R cells", "conditions": "33.33 µM, 6 h, with: IL-36 1 ng/mL", "how to read": "baseline: untreated", "remaining activity": "2.4%"}
